Assay results pooled from the literature.
Each numbered part is a random draw from the data of one study; scales do not carry over between parts.
UniProt O75460, sequence (whole entry, looked up): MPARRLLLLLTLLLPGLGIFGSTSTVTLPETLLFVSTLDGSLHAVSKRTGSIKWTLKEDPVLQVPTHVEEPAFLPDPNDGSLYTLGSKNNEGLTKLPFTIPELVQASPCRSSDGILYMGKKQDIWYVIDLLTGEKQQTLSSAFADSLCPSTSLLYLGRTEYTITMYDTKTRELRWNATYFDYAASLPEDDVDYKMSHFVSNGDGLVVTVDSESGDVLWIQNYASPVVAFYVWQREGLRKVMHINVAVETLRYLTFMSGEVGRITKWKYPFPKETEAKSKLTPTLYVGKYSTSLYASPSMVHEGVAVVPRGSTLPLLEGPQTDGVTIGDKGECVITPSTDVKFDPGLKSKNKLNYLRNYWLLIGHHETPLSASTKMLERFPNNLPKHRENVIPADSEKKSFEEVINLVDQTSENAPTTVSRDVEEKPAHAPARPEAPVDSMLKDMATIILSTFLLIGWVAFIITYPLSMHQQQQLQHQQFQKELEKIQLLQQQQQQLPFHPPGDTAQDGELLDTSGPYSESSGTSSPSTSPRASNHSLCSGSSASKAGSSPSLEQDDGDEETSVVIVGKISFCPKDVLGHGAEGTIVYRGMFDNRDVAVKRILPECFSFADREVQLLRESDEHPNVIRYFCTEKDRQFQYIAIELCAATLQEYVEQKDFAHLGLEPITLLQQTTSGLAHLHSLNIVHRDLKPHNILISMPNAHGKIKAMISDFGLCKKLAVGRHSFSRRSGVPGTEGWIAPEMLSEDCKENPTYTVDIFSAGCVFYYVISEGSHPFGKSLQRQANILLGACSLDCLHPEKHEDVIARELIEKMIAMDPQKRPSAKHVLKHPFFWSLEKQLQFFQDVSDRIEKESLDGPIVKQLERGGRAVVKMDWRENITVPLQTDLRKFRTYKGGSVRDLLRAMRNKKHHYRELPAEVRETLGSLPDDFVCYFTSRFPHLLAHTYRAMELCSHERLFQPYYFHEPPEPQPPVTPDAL
UniProt Q14164, sequence (whole entry, looked up): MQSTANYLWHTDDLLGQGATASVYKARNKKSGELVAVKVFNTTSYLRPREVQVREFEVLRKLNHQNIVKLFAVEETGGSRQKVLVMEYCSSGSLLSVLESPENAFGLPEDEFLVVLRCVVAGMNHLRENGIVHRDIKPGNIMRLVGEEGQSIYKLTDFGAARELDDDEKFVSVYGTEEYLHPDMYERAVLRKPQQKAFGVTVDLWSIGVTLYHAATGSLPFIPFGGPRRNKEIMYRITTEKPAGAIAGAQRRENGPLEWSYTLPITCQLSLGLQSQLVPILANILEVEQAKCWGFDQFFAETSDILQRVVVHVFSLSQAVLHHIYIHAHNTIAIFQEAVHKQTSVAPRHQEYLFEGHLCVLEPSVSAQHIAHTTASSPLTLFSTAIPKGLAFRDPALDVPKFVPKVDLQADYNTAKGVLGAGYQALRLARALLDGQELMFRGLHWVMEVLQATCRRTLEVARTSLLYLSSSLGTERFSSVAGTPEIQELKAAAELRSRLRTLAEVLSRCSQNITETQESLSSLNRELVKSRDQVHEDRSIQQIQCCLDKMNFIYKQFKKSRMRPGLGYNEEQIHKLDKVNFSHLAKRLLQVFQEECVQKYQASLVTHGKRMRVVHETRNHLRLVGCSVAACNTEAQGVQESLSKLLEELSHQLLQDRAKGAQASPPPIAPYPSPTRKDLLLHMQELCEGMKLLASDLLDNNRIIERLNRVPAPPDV
UniProt Q8TDX7, sequence (whole entry, looked up): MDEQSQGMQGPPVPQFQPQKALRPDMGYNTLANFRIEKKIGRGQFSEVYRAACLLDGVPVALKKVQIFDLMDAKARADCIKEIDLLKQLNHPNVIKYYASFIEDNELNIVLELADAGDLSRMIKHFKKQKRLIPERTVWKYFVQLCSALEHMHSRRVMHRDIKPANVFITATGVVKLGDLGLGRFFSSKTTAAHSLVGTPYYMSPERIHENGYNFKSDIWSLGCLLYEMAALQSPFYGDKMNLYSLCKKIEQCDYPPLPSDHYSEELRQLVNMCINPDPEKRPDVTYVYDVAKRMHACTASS

Study 1 — method: competition with immobilised ligand; tested at: 0.1 µM; measurement: remaining binding
SMILES: Cn1cc(Cl)c2c(Oc3c(F)cc(Nc4cc(Cl)nc(N)n4)cc3F)ccnc21
EGFR (Homo sapiens, UniProt P00533, A750P/del747-749); cell-free assay: 94%
FLT3 (Homo sapiens, UniProt P36888); cell-free assay: 100%
BMPR1B (Homo sapiens, UniProt O00238); cell-free assay: 86%
MAP3K6 (Homo sapiens, UniProt O95382); cell-free assay: 100%
ERN1 (Homo sapiens, UniProt O75460); cell-free assay: 76%
FGFR3 (Homo sapiens, UniProt P22607); cell-free assay: 99%
MAPK9 (Homo sapiens, UniProt P45984); cell-free assay: 86%
CSF1R (Homo sapiens, UniProt P07333); cell-free assay: 93%
PIK3CB (Homo sapiens, UniProt P42338); cell-free assay: 82%
MET (Homo sapiens, UniProt P08581, M1250T); cell-free assay: 100%
IKBKE (Homo sapiens, UniProt Q14164); cell-free assay: 100%
TESK1 (Homo sapiens, UniProt Q15569); cell-free assay: 100%
NEK9 (Homo sapiens, UniProt Q8TD19); cell-free assay: 100%
RIPK1 (Homo sapiens, UniProt Q13546); cell-free assay: 100%
ACVRL1 (Homo sapiens, UniProt P37023); binding: 93%
NEK7 (Homo sapiens, UniProt Q8TDX7); cell-free assay: 100%
Receptor-type tyrosine-protein kinase FLT3, autoinhibited (FLT3, Homo sapiens, UniProt P36888); cell-free assay: 83%

Study 2 — effect on: AlphaScreen signal; method: AlphaScreen counter screen; medium: His6 peptide without bromodomain; tested at: 50 µM; notes: assay interference check; measurement: inhibition
Fc1ccc(-c2[nH]c3ncccc3c2CN2CCCC2)cc1: 2.05%
COc1cc(Nc2ncc3c(n2)-c2ccc(Cl)cc2C(c2c(F)cccc2OC)=NC3)ccc1C(=O)O: 17.1%
CN(C)C/C=C/C(=O)Nc1cc2c(Nc3ccc(F)c(Cl)c3)ncnc2cc1O[C@H]1CCOC1: 24.6%
O=C(Nc1cccc(Nc2nccc(Nc3cccc(C(F)(F)F)c3)n2)c1)C1CC1: 32.3%
CC(=O)Cc1cc(-c2cc(CC(C)=O)[nH]n2)n[nH]1: -1.25%
N#Cc1c(NC(=O)c2cccc3ccccc23)sc2c1CCCC2: 25.2%
Nc1nc(Nc2cccc(Cl)c2)c2nc[nH]c2n1: 30.7%

Study 3 — action: degrader; method: HiBiT; cell line: HEK293; tested at: 0.5081 nM; measurement: protein remaining
Target: CRBN/Zinc finger protein Helios (Homo sapiens, UniProt Q96SW2+Q9UKS7)
UniProt Q9UKS7, sequence (whole entry, looked up): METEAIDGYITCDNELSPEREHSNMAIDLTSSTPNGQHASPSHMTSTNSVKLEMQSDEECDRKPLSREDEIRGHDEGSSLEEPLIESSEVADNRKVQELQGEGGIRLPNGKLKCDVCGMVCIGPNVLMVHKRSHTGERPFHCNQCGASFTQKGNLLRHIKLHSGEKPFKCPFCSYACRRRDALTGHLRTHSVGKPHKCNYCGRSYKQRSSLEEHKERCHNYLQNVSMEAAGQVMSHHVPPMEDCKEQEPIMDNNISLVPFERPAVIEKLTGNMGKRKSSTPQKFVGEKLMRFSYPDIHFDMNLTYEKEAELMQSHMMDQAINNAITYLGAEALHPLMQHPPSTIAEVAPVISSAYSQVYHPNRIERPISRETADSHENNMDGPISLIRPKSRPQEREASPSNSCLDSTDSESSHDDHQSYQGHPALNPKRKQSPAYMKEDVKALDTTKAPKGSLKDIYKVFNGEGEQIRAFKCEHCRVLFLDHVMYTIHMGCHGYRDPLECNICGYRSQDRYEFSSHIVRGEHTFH
UniProt Q96SW2, sequence (whole entry, looked up): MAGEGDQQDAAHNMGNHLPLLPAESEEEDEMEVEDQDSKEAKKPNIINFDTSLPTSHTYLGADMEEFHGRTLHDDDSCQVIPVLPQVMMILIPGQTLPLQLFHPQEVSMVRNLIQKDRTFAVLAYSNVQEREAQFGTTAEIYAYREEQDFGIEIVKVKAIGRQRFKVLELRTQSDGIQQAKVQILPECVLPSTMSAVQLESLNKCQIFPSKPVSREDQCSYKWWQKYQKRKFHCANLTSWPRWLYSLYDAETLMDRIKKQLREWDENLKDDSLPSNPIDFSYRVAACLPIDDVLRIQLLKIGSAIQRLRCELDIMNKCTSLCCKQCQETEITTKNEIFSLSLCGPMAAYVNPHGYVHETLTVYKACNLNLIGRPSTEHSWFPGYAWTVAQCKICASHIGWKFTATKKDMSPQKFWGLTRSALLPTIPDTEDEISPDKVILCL
O=C1CCC(N2Cc3c(ccc4c3OCC43CCC(Oc4ccccc4)CC3)C2=O)C(=O)N1 (centres unmarked): 91.6%
O=C1CCC(N2Cc3c(ccc4c3OCC43CCC(Cc4ccccc4)CC3)C2=O)C(=O)N1 (centres unmarked): 91%
O=C1CCC(N2Cc3c(ccc4c3OCCC43CCN(Cc4ccccc4)CC3)C2=O)C(=O)N1 (centres unmarked): 99%

Study 4 — effect on: enzyme activity; action: inhibitor; tested at: 0.5 µM; relative to: control; measurement: remaining activity
Target: Mitogen-activated protein kinase kinase kinase 11 (MAP3K11, Homo sapiens, UniProt Q16584)
UniProt Q16584, sequence (whole entry, looked up): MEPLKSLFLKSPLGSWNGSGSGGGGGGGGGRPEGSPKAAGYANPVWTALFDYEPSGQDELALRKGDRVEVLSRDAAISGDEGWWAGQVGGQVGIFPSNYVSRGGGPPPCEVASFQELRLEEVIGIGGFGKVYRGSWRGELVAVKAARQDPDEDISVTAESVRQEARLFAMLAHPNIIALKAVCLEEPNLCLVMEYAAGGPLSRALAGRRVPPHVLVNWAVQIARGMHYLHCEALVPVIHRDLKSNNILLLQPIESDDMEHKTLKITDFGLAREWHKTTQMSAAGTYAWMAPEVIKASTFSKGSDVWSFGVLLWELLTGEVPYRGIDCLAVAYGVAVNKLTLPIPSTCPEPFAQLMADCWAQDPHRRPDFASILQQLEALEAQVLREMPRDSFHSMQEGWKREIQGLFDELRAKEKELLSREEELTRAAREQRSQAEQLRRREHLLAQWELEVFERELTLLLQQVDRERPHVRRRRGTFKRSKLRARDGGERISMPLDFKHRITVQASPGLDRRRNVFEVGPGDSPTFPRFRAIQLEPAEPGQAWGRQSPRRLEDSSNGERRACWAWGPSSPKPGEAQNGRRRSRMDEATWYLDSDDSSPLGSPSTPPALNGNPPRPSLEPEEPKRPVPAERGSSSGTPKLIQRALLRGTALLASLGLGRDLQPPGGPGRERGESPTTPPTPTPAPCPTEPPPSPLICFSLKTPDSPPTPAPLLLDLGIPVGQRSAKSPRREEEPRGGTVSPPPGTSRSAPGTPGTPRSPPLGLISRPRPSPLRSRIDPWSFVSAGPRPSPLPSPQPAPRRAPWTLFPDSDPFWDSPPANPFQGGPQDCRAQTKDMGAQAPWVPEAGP
COc1cc2c(N3CCN(C(=O)Nc4ccc(OC(C)C)cc4)CC3)ncnc2cc1OCCCN1CCCCC1: 100%
O=C(c1ccccc1)c1ccc(N2CCOCC2)cc1O: 93.2%
CNc1cc2c(Nc3cccc(Br)c3)ncnc2cn1: 96.9%
NC(=O)c1cccc(-c2cc(Nc3ccc(OC(F)(F)F)cc3)ncn2)c1: 99.4%
C[C@@H](N)[C@H]1CC[C@H](C(=O)Nc2ccncc2)CC1: 99.1%
FC(F)(F)c1ccc(/C=C/c2nc(COc3ccc(CCCCn4ccnn4)cc3)co2)cc1: 99.1%
COc1cc2c(Nc3ccc(Br)cc3F)ncnc2cc1OCC1CCN(C)CC1: 100%
N#C/C(=C(/N)SC1C=CC=CC1)c1cccc(C(O)c2ccncc2)c1 (centres unmarked): 97.4%
Nc1nc(Nc2ccc(S(N)(=O)=O)cc2)nn1C(=S)Nc1c(F)cccc1F: 1.33%
CCN(CC)CCCCN1c2ccccc2Oc2ccc(Cl)cc21: 99.9%
O=C1NC(=O)/C(=C/c2ccc3c(c2)OC(F)(F)O3)S1: 97.8%
CC(C)(C)c1nc2c3cc[nH]c(=O)c3c3cc(F)ccc3c2[nH]1: 57%
CC(C)n1cnc2c(Nc3cccc(Cl)c3)nc(NCCO)nc21: 51%
CCCCc1c(-c2ccc(O)cc2)[nH]c2nccnc12: 32.5%

Some of these lines once more (study 4):
COc1cc2c(Nc3ccc(Br)cc3F)ncnc2cc1OCC1CCN(C)CC1: 100%
N#C/C(=C(/N)SC1C=CC=CC1)c1cccc(C(O)c2ccncc2)c1 (centres unmarked): 97.4%
Nc1nc(Nc2ccc(S(N)(=O)=O)cc2)nn1C(=S)Nc1c(F)cccc1F: 1.33%
CCN(CC)CCCCN1c2ccccc2Oc2ccc(Cl)cc21: 99.9%
O=C1NC(=O)/C(=C/c2ccc3c(c2)OC(F)(F)O3)S1: 97.8%
CC(C)(C)c1nc2c3cc[nH]c(=O)c3c3cc(F)ccc3c2[nH]1: 57%
CC(C)n1cnc2c(Nc3cccc(Cl)c3)nc(NCCO)nc21: 51%
